{"data": "Published values pooled from the literature", "note": "Protocols differ between the studies behind these lines. ± marks the error that the study gave."}
{"Structure (SMILES)": "CC(C)C(=O)OC[C@H]1O[C@@H](n2ccc(NO)nc2=O)[C@H](O)[C@@H]1O", "system": "rat brain dialysate", "setting": "5 ng/mL, 6 h, room temperature, bench-top stability, with: NHC 25 ng/mL", "endpoint": "remaining compound", "value": "101 ± 0.99%"}
{"Structure (SMILES)": "CC[C@H](C)[C@H](NC(=O)[C@@H](N)CCCNC(=N)N)C(=O)N[C@H](C(=O)N1CCC[C@H]1C(=O)N[C@@H](C)C(N)=O)C(C)C", "system": "healthy volunteers, both sexes, plasma", "setting": "intravenous infusion, 6.5 mg/kg daily, day 7, multiple ascending dose", "endpoint": "Cmax", "value": "31400 ± 6670 ng/mL"}
{"Structure (SMILES)": "CCNc1nc(Cl)nc(NC(C)C)n1", "assay": "LC-MS/MS", "system": "herbicide solution", "setting": "2 h, 23 °C, with: 254 nm UV exposure", "endpoint": "remaining amount", "value": "41.8 ± 13.2%"}
{"Structure (SMILES)": "COc1ccc(C[C@@H]2NC(=O)[C@H]([C@@H](C)O)NC(=O)[C@@H]3[C@@H]4CCN3C(=O)[C@@H]3Cc5cn(c6ccc(F)cc56)CCCCCCN(Cc5ccc(cc5)CCNC(=O)[C@]5(C)CCCN5C2=O)C(=O)CCC(=O)N[C@@H](C)C(=O)N[C@H](CNC(=O)CCCCC[N+](C)(C)C)C(=O)N[C@@H](Cc2cccc(c2)CNC(=O)CO4)C(=O)N3)cc1", "system": "fasted healthy humans, plasma", "setting": "oral, 200 mg single dose, with 1800 mg Labrasol, geometric mean", "endpoint": "CL/F", "value": "1720 mL/min"}
{"Structure (SMILES)": "CC(=O)N[C@@H](Cc1c[nH]c2ccccc12)C(=O)N[C@H](C(=O)N[C@@H](Cc1c[nH]c2ccccc12)C(=O)NCC(=O)N1CCC[C@H]1C(=O)NCC(=O)N[C@H](C(=O)NCC(=O)N[C@@H](CCCCN)C(=O)N[C@@H](Cc1c[nH]c2ccccc12)C(=O)N[C@H](C(=O)N[C@@H](Cc1c[nH]c2ccccc12)C(N)=O)C(C)C)[C@@H](C)O)C(C)C", "assay": "circular dichroism", "system": "phosphate buffer", "setting": "pH 6.5", "endpoint": "Tm", "value": "23.9 ± 2.5 °C"}
{"Structure (SMILES)": "CCCCCOc1ccc(-c2cc(-c3ccc(C(=O)N[C@H]4C[C@@H](O)[C@@H](O)NC(=O)[C@@H]5[C@@H](O)[C@@H](C)CN5C(=O)[C@H]([C@H](O)CC(N)=O)NC(=O)[C@H]([C@H](O)[C@@H](O)c5ccc(O)c(OS(=O)(=O)O)c5)NC(=O)[C@@H]5C[C@@H](O)CN5C(=O)[C@H]([C@@H](C)O)NC4=O)cc3)no2)cc1", "system": "human paediatric patients 2 to 5 years, plasma", "setting": "intravenous, 4.5 mg/kg once daily, day 7, geometric mean", "endpoint": "Tmax", "value": "1.2 h"}
{"Structure (SMILES)": "C[C@H](Cn1cnc2c(N)ncnc21)OCP(=O)(O)O", "assay": "two-compartment model", "system": "Macaca nemestrina, male", "setting": "subcutaneous, 10.6 mg/kg", "endpoint": "distribution half-life (t1/2,alpha)", "value": "1.11 h"}
{"Structure (SMILES)": "O=C(NCCS)c1cccc(C(=O)NCCS)c1", "system": "male Sprague-Dawley rat, plasma", "setting": "intravenous, 1 mg/kg, 1 h", "endpoint": "concentration", "value": "154 ng/mL"}
{"Structure (SMILES)": "CN[C@@](C)(C[18F])C(=O)O", "system": "SCID mouse DU-145 xenograft, heart", "setting": "120 min, post injection", "endpoint": "tissue uptake", "value": "3.5 ± 0.9 %ID/g"}
{"Structure (SMILES)": "CC[C@H](C)[C@H](NC(=O)[C@H](CO)NC(=O)[C@H](C)NC(=O)[C@@H](NC(=O)CNC(=O)[C@H](CO)NC(=O)[C@@H](NC(=O)[C@@H](NC(=O)[C@H](Cc1c[nH]cn1)NC(=O)[C@@H]1CCCN1C(=O)[C@@H](NC(=O)[C@H](CC(C)C)NC(=O)[C@H](CO)NC(=O)[C@H](CC(C)C)NC(=O)[C@@H](N)Cc1ccccc1)[C@@H](C)CC)[C@@H](C)CC)C(C)C)C(C)C)C(=O)N[C@@H](C)C(=O)N[C@@H](CCCCN)C(=O)N[C@@H](Cc1c[nH]cn1)C(=O)N[C@@H](Cc1ccccc1)C(N)=O", "assay": "UPLC-MS/MS", "system": "processed rat plasma in autosampler", "setting": "0.2 µg/mL, 8 h, 25 °C, post-preparative stability", "endpoint": "concentration found", "value": "183 ng/mL"}
{"Structure (SMILES)": "[123I]c1cncc(OC[C@@H]2CCN2)c1", "assay": "SPECT", "system": "human, cerebellum", "setting": "intravenous bolus, 8.6 mCi", "scale": "reference: tissue over plasma", "endpoint": "tissue/plasma ratio", "value": 12.4}
{"Structure (SMILES)": "O=c1[nH]c(Cc2ccccn2)nc2c1cnn2C1CCOCC1", "system": "healthy men, extensive metabolizers, plasma", "setting": "oral, 10 mg single dose, tablet, geometric mean", "endpoint": "Cmax", "value": "99.8 nM"}
{"note": "For quick reference, copied from above:"}
{"Structure (SMILES)": "CCCCCOc1ccc(-c2cc(-c3ccc(C(=O)N[C@H]4C[C@@H](O)[C@@H](O)NC(=O)[C@@H]5[C@@H](O)[C@@H](C)CN5C(=O)[C@H]([C@H](O)CC(N)=O)NC(=O)[C@H]([C@H](O)[C@@H](O)c5ccc(O)c(OS(=O)(=O)O)c5)NC(=O)[C@@H]5C[C@@H](O)CN5C(=O)[C@H]([C@@H](C)O)NC4=O)cc3)no2)cc1", "system": "human paediatric patients 2 to 5 years, plasma", "setting": "intravenous, 4.5 mg/kg once daily, day 7, geometric mean", "endpoint": "Tmax", "value": "1.2 h"}
